Published values of several laboratories.
Each numbered part is a random draw from the data of one study; scales do not carry over between parts.
UniProt P42336, sequence (whole entry, unmodified, looked up): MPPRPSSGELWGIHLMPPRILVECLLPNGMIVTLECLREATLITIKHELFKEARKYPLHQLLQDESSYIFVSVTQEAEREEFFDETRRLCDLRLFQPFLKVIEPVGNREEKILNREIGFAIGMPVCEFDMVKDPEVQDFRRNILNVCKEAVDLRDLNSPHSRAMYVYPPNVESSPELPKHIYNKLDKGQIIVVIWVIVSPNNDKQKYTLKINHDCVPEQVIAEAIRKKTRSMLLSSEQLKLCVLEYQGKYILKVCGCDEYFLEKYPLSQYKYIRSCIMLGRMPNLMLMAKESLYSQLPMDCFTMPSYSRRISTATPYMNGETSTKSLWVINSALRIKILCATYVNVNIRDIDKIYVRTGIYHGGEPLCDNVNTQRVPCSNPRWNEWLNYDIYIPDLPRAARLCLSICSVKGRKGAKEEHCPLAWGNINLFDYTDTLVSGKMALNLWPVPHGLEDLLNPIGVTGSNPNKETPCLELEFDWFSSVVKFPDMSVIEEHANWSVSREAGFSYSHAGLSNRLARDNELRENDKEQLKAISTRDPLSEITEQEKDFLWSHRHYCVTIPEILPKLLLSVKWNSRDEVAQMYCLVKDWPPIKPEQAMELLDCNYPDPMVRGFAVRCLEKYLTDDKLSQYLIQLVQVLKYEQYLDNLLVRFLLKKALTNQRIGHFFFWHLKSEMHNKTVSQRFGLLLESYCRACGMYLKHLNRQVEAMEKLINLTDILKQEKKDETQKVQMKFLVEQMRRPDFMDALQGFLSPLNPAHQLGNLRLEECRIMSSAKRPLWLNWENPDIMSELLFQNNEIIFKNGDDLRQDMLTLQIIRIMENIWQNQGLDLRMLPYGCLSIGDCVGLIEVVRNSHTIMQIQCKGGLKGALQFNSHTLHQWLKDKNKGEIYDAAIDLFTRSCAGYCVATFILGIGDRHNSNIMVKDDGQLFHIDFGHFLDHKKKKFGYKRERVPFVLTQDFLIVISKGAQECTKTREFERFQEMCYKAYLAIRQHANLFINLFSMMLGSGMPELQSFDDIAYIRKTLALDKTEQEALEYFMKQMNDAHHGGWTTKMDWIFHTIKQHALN
UniProt P42680, sequence (whole entry, looked up): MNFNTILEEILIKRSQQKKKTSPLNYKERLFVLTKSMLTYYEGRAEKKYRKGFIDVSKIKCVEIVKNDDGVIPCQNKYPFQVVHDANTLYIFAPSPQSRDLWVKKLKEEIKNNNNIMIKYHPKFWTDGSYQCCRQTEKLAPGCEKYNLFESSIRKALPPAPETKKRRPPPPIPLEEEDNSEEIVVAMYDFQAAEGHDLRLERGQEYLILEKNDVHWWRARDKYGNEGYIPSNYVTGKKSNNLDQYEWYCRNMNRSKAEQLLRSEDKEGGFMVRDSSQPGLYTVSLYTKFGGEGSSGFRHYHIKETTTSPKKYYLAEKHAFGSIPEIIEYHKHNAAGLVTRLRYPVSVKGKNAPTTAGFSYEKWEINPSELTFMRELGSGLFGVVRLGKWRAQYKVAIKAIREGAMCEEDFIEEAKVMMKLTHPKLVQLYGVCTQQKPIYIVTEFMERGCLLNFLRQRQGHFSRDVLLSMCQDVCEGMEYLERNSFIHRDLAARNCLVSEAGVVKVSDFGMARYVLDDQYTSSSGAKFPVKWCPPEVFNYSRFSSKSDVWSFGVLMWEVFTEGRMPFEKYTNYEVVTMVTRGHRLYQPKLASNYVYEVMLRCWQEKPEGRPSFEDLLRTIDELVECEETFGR
UniProt Q8NFD2, sequence (whole entry, looked up): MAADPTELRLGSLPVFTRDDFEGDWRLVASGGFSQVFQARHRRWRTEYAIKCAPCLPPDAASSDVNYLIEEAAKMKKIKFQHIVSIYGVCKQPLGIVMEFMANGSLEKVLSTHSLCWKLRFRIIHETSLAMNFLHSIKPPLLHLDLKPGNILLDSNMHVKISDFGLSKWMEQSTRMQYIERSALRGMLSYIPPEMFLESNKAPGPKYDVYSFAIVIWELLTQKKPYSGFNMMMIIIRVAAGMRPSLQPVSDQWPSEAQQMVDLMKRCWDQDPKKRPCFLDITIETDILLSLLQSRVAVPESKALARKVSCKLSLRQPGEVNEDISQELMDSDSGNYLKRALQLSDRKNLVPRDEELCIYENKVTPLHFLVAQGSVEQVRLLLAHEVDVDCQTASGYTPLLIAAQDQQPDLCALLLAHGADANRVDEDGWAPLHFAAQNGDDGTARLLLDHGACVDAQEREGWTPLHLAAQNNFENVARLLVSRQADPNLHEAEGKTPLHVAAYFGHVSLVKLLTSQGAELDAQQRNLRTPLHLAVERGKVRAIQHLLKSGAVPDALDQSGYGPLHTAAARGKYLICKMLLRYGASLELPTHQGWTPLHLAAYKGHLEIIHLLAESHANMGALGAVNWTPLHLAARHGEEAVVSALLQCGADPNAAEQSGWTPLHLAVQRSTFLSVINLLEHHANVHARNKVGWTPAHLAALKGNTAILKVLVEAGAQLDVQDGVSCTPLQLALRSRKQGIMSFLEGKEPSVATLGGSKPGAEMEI
UniProt P54753, sequence (whole entry, looked up): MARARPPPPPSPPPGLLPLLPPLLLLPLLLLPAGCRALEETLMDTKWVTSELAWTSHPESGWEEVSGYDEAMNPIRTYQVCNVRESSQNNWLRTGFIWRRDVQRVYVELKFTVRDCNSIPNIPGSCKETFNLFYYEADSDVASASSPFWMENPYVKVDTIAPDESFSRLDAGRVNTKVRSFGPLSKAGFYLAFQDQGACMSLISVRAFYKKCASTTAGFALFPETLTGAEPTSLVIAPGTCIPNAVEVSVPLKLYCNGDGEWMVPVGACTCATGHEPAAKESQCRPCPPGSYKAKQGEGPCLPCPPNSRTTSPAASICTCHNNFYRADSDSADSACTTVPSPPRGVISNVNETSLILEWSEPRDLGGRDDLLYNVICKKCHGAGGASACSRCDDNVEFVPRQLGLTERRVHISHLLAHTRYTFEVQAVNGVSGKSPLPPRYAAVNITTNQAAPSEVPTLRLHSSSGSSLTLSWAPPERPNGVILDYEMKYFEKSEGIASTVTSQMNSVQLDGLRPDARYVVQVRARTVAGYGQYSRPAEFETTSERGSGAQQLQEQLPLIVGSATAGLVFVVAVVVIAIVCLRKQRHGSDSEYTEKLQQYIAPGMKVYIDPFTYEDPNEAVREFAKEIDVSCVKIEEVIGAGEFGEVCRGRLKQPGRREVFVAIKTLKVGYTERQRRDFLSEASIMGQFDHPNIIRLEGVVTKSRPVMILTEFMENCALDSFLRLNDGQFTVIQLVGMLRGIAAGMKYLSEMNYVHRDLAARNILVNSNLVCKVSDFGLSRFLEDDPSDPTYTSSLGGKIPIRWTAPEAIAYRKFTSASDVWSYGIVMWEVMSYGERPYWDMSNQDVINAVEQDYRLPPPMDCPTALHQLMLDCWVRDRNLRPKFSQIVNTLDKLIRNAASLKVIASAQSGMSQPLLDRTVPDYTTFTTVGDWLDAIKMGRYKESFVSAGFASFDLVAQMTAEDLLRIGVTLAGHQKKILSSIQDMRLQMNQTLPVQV
UniProt P36894, sequence (whole entry, looked up): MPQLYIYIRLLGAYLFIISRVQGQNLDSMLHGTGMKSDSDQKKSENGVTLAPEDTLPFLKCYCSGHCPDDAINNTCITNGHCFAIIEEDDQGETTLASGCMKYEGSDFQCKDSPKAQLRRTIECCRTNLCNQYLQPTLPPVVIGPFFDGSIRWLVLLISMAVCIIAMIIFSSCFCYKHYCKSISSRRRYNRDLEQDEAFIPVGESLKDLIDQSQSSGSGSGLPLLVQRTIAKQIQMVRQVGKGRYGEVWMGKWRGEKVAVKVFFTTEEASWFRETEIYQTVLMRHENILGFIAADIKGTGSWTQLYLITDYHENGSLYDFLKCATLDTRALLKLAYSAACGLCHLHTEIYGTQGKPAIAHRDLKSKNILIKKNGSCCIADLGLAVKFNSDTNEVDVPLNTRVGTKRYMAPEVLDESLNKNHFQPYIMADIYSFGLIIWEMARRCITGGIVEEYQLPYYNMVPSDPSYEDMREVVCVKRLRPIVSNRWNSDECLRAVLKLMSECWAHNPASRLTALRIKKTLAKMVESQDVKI
UniProt Q99755, sequence (whole entry, looked up): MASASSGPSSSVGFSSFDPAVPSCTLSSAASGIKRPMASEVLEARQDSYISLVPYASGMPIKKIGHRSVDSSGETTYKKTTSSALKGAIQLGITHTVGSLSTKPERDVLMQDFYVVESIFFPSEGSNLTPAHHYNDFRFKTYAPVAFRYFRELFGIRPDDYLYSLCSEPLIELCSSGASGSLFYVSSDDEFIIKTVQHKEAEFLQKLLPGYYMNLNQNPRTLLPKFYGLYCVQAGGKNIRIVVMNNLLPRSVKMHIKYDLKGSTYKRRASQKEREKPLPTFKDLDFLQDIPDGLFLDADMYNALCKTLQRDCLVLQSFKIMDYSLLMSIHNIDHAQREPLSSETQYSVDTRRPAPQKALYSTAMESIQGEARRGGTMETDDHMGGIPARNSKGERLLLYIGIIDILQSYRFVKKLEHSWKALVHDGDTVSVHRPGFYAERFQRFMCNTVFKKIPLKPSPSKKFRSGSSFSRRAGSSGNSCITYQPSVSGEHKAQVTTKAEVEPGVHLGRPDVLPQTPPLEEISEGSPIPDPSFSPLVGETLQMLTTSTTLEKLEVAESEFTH

Set 1 — method: competition with immobilised ligand; concentration: 1 µM
SMILES: C[C@H](NC(=O)c1cnc2n1[C@](C)(Cc1ccc(C#N)cc1)C(=O)N2c1cc(Cl)c(F)c(Cl)c1)C(=O)NC1(c2ccccn2)CC1
The remaining binding was 100% (Tyrosine-protein kinase receptor TYRO3 (TYRO3, Homo sapiens, UniProt Q06418); cell-free assay).
For Vascular endothelial growth factor receptor 3 (FLT4, Homo sapiens, UniProt P35916); cell-free assay: remaining binding read 100%.
For ALK tyrosine kinase receptor (ALK, Homo sapiens, UniProt Q9UM73); cell-free assay: remaining binding read 100%.
It gave 100% for remaining binding (Death-associated protein kinase 1 (DAPK1, Homo sapiens, UniProt P53355); cell-free assay).
Phosphatidylinositol 4,5-bisphosphate 3-kinase catalytic subunit beta isoform (PIK3CB, Homo sapiens, UniProt P42338); cell-free assay — remaining binding: 99%.
For Tyrosine-protein kinase Fes/Fps (FES, Homo sapiens, UniProt P07332); cell-free assay: remaining binding read 100%.
For Phosphatidylinositol 4,5-bisphosphate 3-kinase catalytic subunit alpha isoform (PIK3CA, Homo sapiens, UniProt P42336, E545K); cell-free assay: remaining binding read 100%.
Epidermal growth factor receptor (EGFR, Homo sapiens, UniProt P00533, G719C); cell-free assay — remaining binding: 100%.
It gave 98% for remaining binding (Bone morphogenetic protein receptor type-1A (BMPR1A, Homo sapiens, UniProt P36894); binding).
The remaining binding was 100% (Phosphatidylinositol 4,5-bisphosphate 3-kinase catalytic subunit alpha isoform (PIK3CA, Homo sapiens, UniProt P42336, E545A); cell-free assay).
The remaining binding was 75% (cAMP-dependent protein kinase catalytic subunit beta (PRKACB, Homo sapiens, UniProt P22694); cell-free assay).
Tyrosine-protein kinase Tec (TEC, Homo sapiens, UniProt P42680); binding — remaining binding: 75%.
The remaining binding was 100% (Phosphatidylinositol 4-kinase beta (PI4KB, Homo sapiens, UniProt Q9UBF8); cell-free assay).
Mitogen-activated protein kinase kinase kinase 7 (MAP3K7, Homo sapiens, UniProt O43318); cell-free assay — remaining binding: 97%.
The remaining binding was 100% (Phosphatidylinositol 4-phosphate 5-kinase type-1 alpha (PIP5K1A, Homo sapiens, UniProt Q99755); cell-free assay).
It gave 100% for remaining binding (Ephrin type-B receptor 3 (EPHB3, Homo sapiens, UniProt P54753); cell-free assay).
It gave 100% for remaining binding (cAMP-dependent protein kinase catalytic subunit alpha (PRKACA, Homo sapiens, UniProt P17612); cell-free assay).
It gave 77% for remaining binding (Serine/threonine-protein kinase PRP4 homolog (PRPF4B, Homo sapiens, UniProt Q13523); cell-free assay).
The remaining binding was 85% (Tyrosine-protein kinase ABL1, non-phosphorylated (ABL1, Homo sapiens, UniProt P00519, T315I); cell-free assay).
Ankyrin repeat and protein kinase domain-containing protein 1 (ANKK1, Homo sapiens, UniProt Q8NFD2); cell-free assay — remaining binding: 100%.

Set 2 — species: human; sample: microsomes or S9; concentration: 2 µM; time: 0.5 h
The remaining compound of `CCCN(CCC)C(=O)c1cccc(C(=O)NN(Cc2cc(F)cc(F)c2)C(=O)[C@H](NCC(=O)NCc2ccccc2)C(C)C)c1` is reported as 0.343%.
For `Cc1ccc(S(=O)(=O)n2cc(Br)c3c(N4C[C@@H](C)O[C@@H](C)C4)ncnc32)cc1`, the remaining compound was 22.1%.
With `CSc1cccc(NC(=O)N2Cc3c(sc4c3CCCC4)-n3cccc3C2C)c1` (stereo not shown) the remaining compound was 8.41%.
With `CCn1cc(S(=O)(=O)N2CCC3(CCCCO3)CC2)cn1` the remaining compound was over 100%.
The remaining compound of `COc1cc(=O)n2c(c1C(=O)Nc1ccc3c(c1)OCCO3)CCCC2` is reported as 85%.
For `COc1ccc(-n2cc(CO)c3cnc4c(OC)cccc4c32)c(C)c1`, the remaining compound was 70.6%.
The remaining compound of `O=C(CCn1ccc2ccc(F)cc21)Nc1nc[nH]n1` is reported as 85%.

Set 3 — organism: Sarcocystis neurona; effect on: parasite growth; concentration: 10 µM; notes: second screen; reference: untreated
For `C[C@]12CCC(=O)C=C1CC[C@@H]1[C@@H]2CC[C@@]2(C)[C@H]1CC[C@]2(O)C(=O)CO`, “log2 fold change” read -0.48.
`Cc1onc(-c2ccccc2)c1C(=O)N[C@@H]1C(=O)N2[C@@H]1SC(C)(C)[C@@H]2C(=O)O` — result for “log2 fold change”: 0.28.
`Fc1ccc([C@@H]2CCNC[C@H]2COc2ccc3c(c2)OCO3)cc1.O=C(O)/C=C\C(=O)O`: “log2 fold change” 0.07.
Under “log2 fold change”, `CC(C)NCC(O)COc1cccc2ccccc12.Cl` (stereo not shown) is recorded as 0.34.
`O=C(O[C@@H]1Cc2c(O)cc(O)cc2O[C@@H]1c1cc(O)c(O)c(O)c1)c1cc(O)c(O)c(O)c1` — result for “log2 fold change”: 0.45.
`COc1ccc2[n-]c([S+]([O-])Cc3ncc(C)c(OC)c3C)nc2c1.COc1ccc2[n-]c([S+]([O-])Cc3ncc(C)c(OC)c3C)nc2c1.[Mg+2]` (stereo not shown) — result for “log2 fold change”: -0.76.
`CC(C)[N+](C)(CCOC(=O)C1c2ccccc2Oc2ccccc21)C(C)C.[Br-]` — result for “log2 fold change”: 0.49.

Set 4 — effect on: enzyme activity; action: inhibitor; concentration: 10 µM
Target: Calcium/calmodulin-dependent protein kinase type II subunit alpha (CAMK2A, Homo sapiens, UniProt Q9UQM7)
UniProt Q9UQM7, sequence (whole entry, looked up): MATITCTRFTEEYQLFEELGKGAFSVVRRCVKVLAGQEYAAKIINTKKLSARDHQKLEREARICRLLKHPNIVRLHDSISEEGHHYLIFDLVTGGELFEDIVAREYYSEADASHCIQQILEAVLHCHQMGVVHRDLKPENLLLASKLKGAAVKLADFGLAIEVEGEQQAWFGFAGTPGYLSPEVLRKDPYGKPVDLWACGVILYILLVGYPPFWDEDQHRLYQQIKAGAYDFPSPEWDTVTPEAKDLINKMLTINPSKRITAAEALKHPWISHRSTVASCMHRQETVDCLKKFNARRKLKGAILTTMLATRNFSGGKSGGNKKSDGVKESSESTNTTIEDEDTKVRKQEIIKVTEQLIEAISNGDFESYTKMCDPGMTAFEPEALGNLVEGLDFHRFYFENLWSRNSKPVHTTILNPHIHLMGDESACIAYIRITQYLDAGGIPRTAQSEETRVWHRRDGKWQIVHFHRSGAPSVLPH
For `C[C@@H]1CC[C@@]2(OC1)O[C@H]1C[C@H]3[C@@H]4CC[C@H]5C[C@@H](O[C@@H]6O[C@H](CO)[C@H](O[C@@H]7O[C@H](CO)[C@@H](O)[C@H](O[C@@H]8OC[C@@H](O)[C@H](O)[C@H]8O)[C@H]7O[C@@H]7O[C@H](CO)[C@H](O)[C@H](O)[C@H]7O)[C@H](O)[C@H]6O)CC[C@]5(C)[C@H]4CC(=O)[C@]3(C)[C@H]1[C@@H]2C`, the inhibition was -19%.
The inhibition of `O=C(O)c1ccco1` is reported as 20%.
`CCCCCCCC(O)CC(=O)O` (stereo not shown) gave an inhibition of 5%.
For `CC(C)n1c(/C=C/[C@H](O)C[C@H](O)CC(=O)O)c(-c2ccc(F)cc2)c2ccccc21` (racemic), the inhibition was -5%.
With `O=C(O)[C@H](O)[C@@H](O)CO` the inhibition was 19%.
The inhibition of `COc1ccc(CC(=O)c2ccc(O)cc2O)cc1` is reported as -27%.
For `COc1cnc(NS(=O)(=O)c2ccc(N)cc2)nc1`, the inhibition was -10%.
`CC1(O)CCC(C(C)(C)O)CC1` (stereo not shown) gave an inhibition of -2%.
With `CC(C)(CC(=O)O)CC(=O)O` the inhibition was -15%.

A few entries again (set 4):
`CCCCCCCC(O)CC(=O)O` (stereo not shown) gave an inhibition of 5%.
For `CC(C)n1c(/C=C/[C@H](O)C[C@H](O)CC(=O)O)c(-c2ccc(F)cc2)c2ccccc21` (racemic), the inhibition was -5%.
With `O=C(O)[C@H](O)[C@@H](O)CO` the inhibition was 19%.
The inhibition of `COc1ccc(CC(=O)c2ccc(O)cc2O)cc1` is reported as -27%.
For `COc1cnc(NS(=O)(=O)c2ccc(N)cc2)nc1`, the inhibition was -10%.
`CC1(O)CCC(C(C)(C)O)CC1` (stereo not shown) gave an inhibition of -2%.
With `CC(C)(CC(=O)O)CC(=O)O` the inhibition was -15%.
